Measurements gathered from unrelated publications.
A part holds a random share of what one study measured.

Set 1
Target: Interferon regulatory factor 7, full length, phosphomimetic (IRF7, Homo sapiens, UniProt Q92985, residues 1-503, S101K/S471D/S472D/S475D/S476D/S477D/S483D/S484D/S487D)
Method: protein-binding microarray
Form: double-stranded DNA, one strand shown
Medium: in vitro
Concentration: 250 nM
Notes: 60-bp whole probe
With: salmon DNA 0.4 mg/ml
Reference: random background probes
Direction: higher = stronger binding
Residues (chain): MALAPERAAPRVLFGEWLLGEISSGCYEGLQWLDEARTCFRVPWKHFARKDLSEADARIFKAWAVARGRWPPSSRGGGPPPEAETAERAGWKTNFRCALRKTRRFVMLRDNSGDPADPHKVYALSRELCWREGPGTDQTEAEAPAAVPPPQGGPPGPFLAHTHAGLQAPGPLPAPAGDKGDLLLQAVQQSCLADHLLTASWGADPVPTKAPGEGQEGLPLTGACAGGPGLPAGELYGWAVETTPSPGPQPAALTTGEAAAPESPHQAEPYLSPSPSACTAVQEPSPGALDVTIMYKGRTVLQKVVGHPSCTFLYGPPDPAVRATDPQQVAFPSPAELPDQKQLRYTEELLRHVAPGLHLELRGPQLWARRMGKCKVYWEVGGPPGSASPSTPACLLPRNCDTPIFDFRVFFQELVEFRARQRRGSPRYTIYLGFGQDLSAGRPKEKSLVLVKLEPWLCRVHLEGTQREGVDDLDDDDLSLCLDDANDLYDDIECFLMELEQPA
Oligonucleotide | log fluorescence
GCCTAGCACTTAGGACTGGACTTTCGATTAGTGCTAGTCTTGATTCGCTTGACGCTGCTG | 0.722 z-score
GCCTAGCACGACGGTTTCCTTTTCGTGACGTGCTAGGTCTTGATTCGCTTGACGCTGCTG | 6.17 z-score
GCCTAGCACGACGATTTCAGTTTCGACACGTGCTAGGTCTTGATTCGCTTGACGCTGCTG | 3.53 z-score
GCCTAGCACGACGGTATCGGACTTGGGACGTGCTAGGTCTTGATTCGCTTGACGCTGCTG | -0.0413 z-score

Set 2
Target: Histone acetyltransferase KAT6A, both winged helices, GST fusion (KAT6A, Homo sapiens, UniProt Q92794, residues 1-181)
Method: protein binding microarray
Form: double-stranded DNA, one strand shown
Medium: in vitro
Concentration: not given
Notes: 8-mer, flanks averaged, mean of 2 arrays, mostly near background
Reference: not given
Direction: higher = stronger binding
Residues (chain): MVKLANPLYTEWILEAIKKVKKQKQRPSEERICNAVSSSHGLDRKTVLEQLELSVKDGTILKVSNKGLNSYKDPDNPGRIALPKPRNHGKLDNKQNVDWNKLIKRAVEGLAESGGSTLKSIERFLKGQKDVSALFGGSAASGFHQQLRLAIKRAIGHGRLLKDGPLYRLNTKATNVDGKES
Oligonucleotide | E-score
GAGAGGAC | -0.0387
CGAGCACG | 0.127
ACTATCGG | 0.123
AGGAACAT | -0.171
CCGCACGC | 0.273
CGGTCAAA | 0.175

Set 3
Target: RNA binding protein fox-1 homolog 2, RRM domain, GST-SBP tag (RBFOX2, Homo sapiens, UniProt O43251-10, residues 100-194)
Method: RNA Bind-n-Seq
Form: RNA
Medium: in vitro
Concentration: 365 nM
Notes: natural RNA segment, single round, ends assumed
Reference: no-protein control
Direction: higher = stronger binding
Oligonucleotide | RBNS enrichment (R)
GGGAGUUCUACAGUCCGACGAUCUGAUUGUAGUAACUCUAUUGGCAUCUUGUAAAUUGGCUCAUUUCCUACGUGAUGUACAUAGAAUAUUAUAGCCUAAAGAUUUUCCAGUUACUUGCGGUCUUUUUAAAUUGUGGAAUUCUCGGGUGCCAA | 0.559
GGGAGUUCUACAGUCCGACGAUCUGAGCCCAGUGAGUCCCAGCAGCUAUCAGCCUCCCUGAACGAUUAAACAGCUCCUCCCAGCAUUUGCAUUUGCCCUUCUGUUUCUGUGAGGCCGGCAGCCCUUGGGGCUGUGGAAUUCUCGGGUGCCAA | 2.19
GGGAGUUCUACAGUCCGACGAUCAGUUUAAAGUCAUGUUUUUAAAAUCUUAUUAAAGUUUCAAAAAUCUGAAGAUUGUUUAUCUUAUCUAGAUGUAAAUUUUUAUUAAAAAGUUGCACUUAUGAAAAAGCAAAUGGAAUUCUCGGGUGCCAA | 0.733

Other studies, line by line
Molecule | target | test | test system | conditions | how to read | measurement | value
PhoQ, residues 284 288 289 292 302 303 ASTSDA | PhoP, residues 12 14 15 18 19 IFFTR (Escherichia coli, UniProt P23836) | Sort-seq, measured: YFP reporter | E. coli | PhoQ-PhoP variant library, with: 10 µM Mg2+ | reference: high Mg2+ state, higher = stronger signaling | fold induction | 4.73

Some of these lines once more (set 2):
Oligonucleotide | E-score
AGGAACAT | -0.171
ACTATCGG | 0.123
